# Published values gathered from unrelated publications.
# Each line is one published result; not all experiments were run side by side. “And” joins repeats or separate records; there may be more than shown. ± marks the error that the study gave.
# CAMK2G: Calcium/calmodulin-dependent protein kinase type II subunit gamma (CAMK2G, Homo sapiens, UniProt Q13555)
# Chain of UniProt Q13555 (whole entry, looked up): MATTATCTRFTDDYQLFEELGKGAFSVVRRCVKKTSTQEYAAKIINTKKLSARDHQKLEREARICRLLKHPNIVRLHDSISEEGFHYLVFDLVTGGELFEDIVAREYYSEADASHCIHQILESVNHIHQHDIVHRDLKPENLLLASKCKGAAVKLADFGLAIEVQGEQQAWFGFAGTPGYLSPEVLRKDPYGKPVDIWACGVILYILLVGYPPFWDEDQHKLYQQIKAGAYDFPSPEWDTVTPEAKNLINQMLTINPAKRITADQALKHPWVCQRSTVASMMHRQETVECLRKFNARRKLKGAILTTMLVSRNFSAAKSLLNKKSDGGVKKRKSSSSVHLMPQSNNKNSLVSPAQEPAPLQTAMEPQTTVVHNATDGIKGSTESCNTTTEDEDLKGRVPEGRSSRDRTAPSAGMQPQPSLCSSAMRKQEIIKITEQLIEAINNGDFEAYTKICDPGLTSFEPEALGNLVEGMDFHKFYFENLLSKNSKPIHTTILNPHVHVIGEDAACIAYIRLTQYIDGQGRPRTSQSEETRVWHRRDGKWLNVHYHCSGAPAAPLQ
# Chain of UniProt P42336 (whole entry, unmodified, looked up): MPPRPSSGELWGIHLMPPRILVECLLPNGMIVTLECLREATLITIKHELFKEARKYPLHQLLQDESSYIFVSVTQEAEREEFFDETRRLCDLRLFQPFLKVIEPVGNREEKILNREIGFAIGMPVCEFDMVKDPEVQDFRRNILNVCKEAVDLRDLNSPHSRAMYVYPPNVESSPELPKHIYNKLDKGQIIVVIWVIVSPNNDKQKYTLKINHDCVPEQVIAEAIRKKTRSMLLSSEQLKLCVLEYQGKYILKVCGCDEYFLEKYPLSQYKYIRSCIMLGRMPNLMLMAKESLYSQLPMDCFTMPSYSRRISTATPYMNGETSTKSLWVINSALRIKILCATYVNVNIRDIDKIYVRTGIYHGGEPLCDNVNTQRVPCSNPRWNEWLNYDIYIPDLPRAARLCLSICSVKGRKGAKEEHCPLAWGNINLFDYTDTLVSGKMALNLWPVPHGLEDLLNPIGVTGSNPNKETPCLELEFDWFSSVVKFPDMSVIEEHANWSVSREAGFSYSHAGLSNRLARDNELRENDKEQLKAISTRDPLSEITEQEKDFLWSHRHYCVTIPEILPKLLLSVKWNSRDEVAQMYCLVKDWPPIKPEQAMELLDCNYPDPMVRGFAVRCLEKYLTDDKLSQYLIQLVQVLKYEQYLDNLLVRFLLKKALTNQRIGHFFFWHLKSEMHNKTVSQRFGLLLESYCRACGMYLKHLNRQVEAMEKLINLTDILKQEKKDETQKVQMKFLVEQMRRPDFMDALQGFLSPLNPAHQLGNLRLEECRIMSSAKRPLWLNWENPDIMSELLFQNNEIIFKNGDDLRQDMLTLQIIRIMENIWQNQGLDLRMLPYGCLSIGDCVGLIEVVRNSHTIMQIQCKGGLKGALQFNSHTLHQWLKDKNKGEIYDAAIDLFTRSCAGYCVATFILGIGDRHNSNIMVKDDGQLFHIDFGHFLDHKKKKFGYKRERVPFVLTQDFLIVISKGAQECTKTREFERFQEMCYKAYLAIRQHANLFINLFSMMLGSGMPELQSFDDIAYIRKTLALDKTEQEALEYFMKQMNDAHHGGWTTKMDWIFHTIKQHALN
# Chain of UniProt Q13131 (whole entry, looked up): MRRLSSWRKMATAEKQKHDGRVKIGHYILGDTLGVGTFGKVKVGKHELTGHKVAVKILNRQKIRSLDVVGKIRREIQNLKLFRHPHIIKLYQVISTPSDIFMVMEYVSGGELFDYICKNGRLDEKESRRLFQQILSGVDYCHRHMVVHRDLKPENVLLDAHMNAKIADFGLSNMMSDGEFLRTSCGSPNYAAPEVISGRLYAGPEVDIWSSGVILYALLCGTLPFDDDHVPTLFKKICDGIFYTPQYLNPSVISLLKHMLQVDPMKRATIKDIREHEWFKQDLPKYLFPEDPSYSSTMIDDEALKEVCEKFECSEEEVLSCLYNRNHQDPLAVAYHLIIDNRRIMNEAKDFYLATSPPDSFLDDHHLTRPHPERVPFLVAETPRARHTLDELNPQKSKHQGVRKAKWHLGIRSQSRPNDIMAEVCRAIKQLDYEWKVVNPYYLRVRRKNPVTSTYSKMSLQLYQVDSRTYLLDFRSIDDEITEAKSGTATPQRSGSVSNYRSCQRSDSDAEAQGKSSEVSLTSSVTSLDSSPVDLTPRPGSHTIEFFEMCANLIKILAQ
Compound,target or system,assay,test system,setting,how to read,quantity,result
Cc1cc(Oc2nc(N3CC[C@@H](c4ccncc4)C3)ncc2F)[nH]n1,Mycobacterium tuberculosis,OD,H37Rv PurF CRISPRi knockdown,"0.03125 µM, with: anhydrotetracycline low",,normalised growth,2% and 5% and 4%
Cc1cc(C(=O)Nc2nc3cccc(C)c3n2[C@H]2CCCCN(C(=O)/C=C/CN(C)C)C2)ccn1,Trypanosoma brucei brucei,,2T1 wild type,0.00343 µM,,survival,105% and 98.1% and 102% and 112% and 103% and 95%
NC[C@]1(CC(=O)O)CC[C@@H]([18F])CC1,,PET,"rhesus monkey, whole brain","dose not given, with: gabapentin pre-injection",reference: baseline,K1 change,16%
CN(C)[C@H]1C[C@@]23CC[C@@]4(O2)C(=CC[C@]2(C)[C@@H](c5ccc6ccncc6c5)CC[C@H]24)C=C3[C@@H](O)[C@@H]1O,CAMK2G,"ATP probe labelling, inhibitor, KiNativ profiling",,0.1 µM,,inhibition,4.8%
CC(C)C[C@H](NC(=O)[C@H](CC(=O)O)NC(=O)[C@@H](NC(=O)[C@H](CCC(=O)O)NC(=O)[C@H](CCCCN)NC(=O)[C@H](Cc1ccc(O)cc1)NC(=O)[C@H](CCCCN)NC(=O)[C@H](Cc1c[nH]cn1)NC(=O)CNC(=O)CN)[C@@H](C)O)C(N)=O,HCV IRES RNA,"RNA cleavage, MALDI-TOF mass spectrometry",hepatitis C virus,,,initial rate,4 ± 1.8 %/min
CC[C@@H]1CN2CCc3c([nH]c4cccc(OC)c34)[C@@H]2C[C@@H]1/C(=C\OC)C(=O)OC,rabbit anti-mitragynine polyclonal IgG,"antigen binding, competitor, competitive indirect ELISA",10% methanol,30 min both antibody incubations,,IC50,1.25 µg/mL and 1 µg/mL
Cc1nc2cc(Br)ccn2c1C(=O)NCc1ccc2oc(-c3ccc(OC(F)(F)F)cc3)nc2c1,Mycolicibacterium smegmatis,,,72 h,,MIC,> 25 µM
Cc1nc2cccc(OCC(C)(C)C(=O)NC(C)C)c2c(N)c1C(=O)[O-].[Na+],Salmonella typhimurium,Ames preincubation,TA98,"0.13 mg/plate, with: with rat liver S9",,revertant colonies,46 ± 2 colonies/plate
CC(C)[C@H]1NC(=O)C[C@H]2/C=C/CCSSC[C@@H](NC1=O)C(=O)N[C@H](Cc1cccc3ccccc13)C(=O)NCC(=O)O2,"5'-AMP-activated protein kinase catalytic subunit alpha-1, with beta1, gamma1 (PRKAA1, Homo sapiens, UniProt Q13131)",,,10 µM,,inhibition,-5.9%
CCc1nc2ccc(C(F)(F)F)cn2c1C(=O)NCc1ccc2oc(-c3ccc(Cl)cc3)nc2c1,Mycolicibacterium smegmatis,,,72 h,,MIC,> 100 µM
CN[C@@H]1[C@H](O)[C@H](NC)[C@H]2O[C@]3(O)[C@H](O[C@@H]2[C@H]1O)O[C@H](C)C[C@H]3NC(=O)Cc1cc(Cl)ccn1,GABA transporter,binding,,10 µM,,inhibition,14%
CC[C@H](C)[C@H](NC(=O)[C@H](C)NC(=O)CNC(=O)[C@H](Cc1ccccc1)NC(=O)[C@H](CC(N)=O)NC(=O)[C@H](CC(N)=O)NC(=O)[C@H](CO)NC(=O)[C@H](CO)NC(=O)[C@H](Cc1c[nH]cn1)NC(=O)[C@@H](NC(=O)[C@H](CC(C)C)NC(=O)[C@H](Cc1ccccc1)NC(=O)[C@H](CC(N)=O)NC(=O)[C@H](C)NC(=O)[C@H](CC(C)C)NC(=O)[C@H](CCCNC(=N)N)NC(=O)[C@H](CCC(N)=O)NC(=O)[C@@H](NC(=O)[C@H](C)NC(=O)[C@@H]1CSSC[C@H](NC(=O)[C@@H](N)CCCCN)C(=O)N[C@@H](CC(N)=O)C(=O)N[C@@H]([C@@H](C)O)C(=O)N[C@@H](C)C(=O)N[C@@H]([C@@H](C)O)C(=O)N1)[C@@H](C)O)C(C)C)C(=O)N[C@@H](CC(C)C)C(=O)N[C@@H](CO)C(=O)N[C@@H](CO)C(=O)N[C@H](C(=O)N[C@@H](CC(N)=O)C(=O)N[C@H](C(=O)NCC(=O)N[C@@H](CO)C(=O)N[C@@H](CC(N)=O)C(=O)N[C@H](C(=O)N[C@@H](Cc1ccc(O)cc1)C(N)=O)[C@@H](C)O)C(C)C)[C@@H](C)O,RIN-m5F,ELISA,Golgi and mitochondria enriched fraction,24 h,reference: total,internalized fraction,2.6% and ~3%
CC[C@H](C)[C@H](NC(=O)[C@H](CC(=O)O)NC(=O)[C@@H](NC(=O)[C@@H]1CCCN1C(=O)[C@@H](N)CCCNC(=N)N)[C@@H](C)O)C(=O)N[C@@H](CCCCN)C(=O)N[C@H]1CSSC[C@@H]2NC(=O)[C@H](CCCNC(=N)N)NC(=O)CNC(=O)[C@H](CC(N)=O)NC(=O)[C@H]([C@@H](C)O)NC(=O)[C@H](CCCCN)NC(=O)CNC(=O)[C@H](Cc3ccccc3)NC(=O)[C@H](CCCNC(=N)N)NC(=O)[C@H](CO)NC(=O)[C@H](CCCCNC(=O)OCc3cc(OC)c(OC)cc3[N+](=O)[O-])NC(=O)[C@@H]3CSSC[C@@H](C(=O)N[C@@H](Cc4ccccc4)C(=O)O)NC(=O)[C@H](CC(=O)O)NC(=O)[C@H](CSSC[C@H](NC(=O)[C@H](CCC(N)=O)NC(=O)[C@H](Cc4ccc(O)cc4)NC(=O)[C@H](CO)NC(=O)[C@H](CCC(=O)O)NC(=O)[C@H](CO)NC1=O)C(=O)N[C@@H](Cc1ccccc1)C(=O)N1CCC[C@H]1C(=O)N[C@@H](C(C)C)C(=O)N3)NC(=O)[C@H](Cc1ccccc1)NC(=O)CNC(=O)[C@H](CC(N)=O)NC(=O)[C@H](C(C)C)NC2=O,human iPS-derived cardiomyocytes,,,"200 nM, after illumination 365 nm",reference: no illumination,APD70 increase,1.3 fold
CC[C@H](C)[C@H](NC(=O)[C@H](CO)NC(=O)[C@H](Cc1ccc(O)cc1)NC(=O)[C@H](Cc1ccc(O)cc1)NC(=O)[C@H](CC(N)=O)NC(=O)CNC(=O)[C@H](CO)NC(=O)[C@H](Cc1ccc(O)cc1)NC(=O)[C@H](CO)NC(=O)[C@H](CO)NC(=O)[C@H](CC(N)=O)NC(=O)COCCOCCNC(=O)CN1CCN(CC(=O)O)CCN(CC(=O)O)CCN(CC(=O)O)CC1)C(=O)N[C@@H](CC(C)C)C(N)=O [copper-64 labelled],,dynamic PET,"tamoxifen-induced PDAC mouse model, blood","0 min, 49 days after tamoxifen",,mean uptake,0 %IA/cc
O=C1NC(=O)c2c1c1cc(F)c[n+]3c1c1c2c2cc(O)ccc2[n]1[Ru-4]312([N]=C=S)[S+]3CC[S+]1CC[S+]2CC3 (stereo not shown),CAMK2G,enzyme activity,,"100 nM, human enzyme, with: 10 µM ATP",reference: untreated,remaining activity,5%
CS(C)(=O)=Nc1ccc(-c2ccc(-c3nc4cc(O[C@@H]5CO[C@H]6[C@@H]5OC[C@H]6O)[nH]c4cc3F)cc2)cc1,"Phosphatidylinositol 4,5-bisphosphate 3-kinase catalytic subunit alpha isoform, with p85 alpha (PIK3CA, Homo sapiens, UniProt P42336, H1047R)",kinase activity,,10 µM,,inhibition,-1%
COc1ccccc1-c1n[nH]c2nc(NC3CCN(C(=O)Cc4ccc(F)cc4F)CC3)ncc12,,"bead binding, competition bead pull-down, refers to: LMJF.35.0370",Leishmania donovani axenic amastigote extract,10 µM,reference: vehicle,relative abundance,1.02
CC(C)C[C@@H]1NC(=O)CNC(=O)[C@H](Cc2c[nH]cn2)NC(=O)[C@H](C)NC(=O)[C@H](CO)NC(=O)[C@H](CCC(N)=O)NC(=O)[C@@H](NC(=O)CN)CSSC[C@@H]2NC(=O)CNC(=O)[C@H](C)NC(=O)[C@H](CC(C)C)NC(=O)[C@@H]3CSSC[C@@H](C(=O)NCC(=O)O)NC(=O)[C@H](Cc4ccccc4)NC(=O)CNC(=O)[C@H](CC(N)=O)NC(=O)[C@@H]4CCCN4C(=O)CNC(=O)[C@H](CSSC[C@H](NC(=O)[C@H](CCCNC(=N)N)NC(=O)[C@H](CC(N)=O)NC(=O)[C@H](Cc4c[nH]cn4)NC(=O)[C@H](CCCCN)NC1=O)C(=O)N[C@@H](CCCCN)C(=O)N[C@@H](CCC(N)=O)C(=O)N[C@@H](CC(=O)O)C(=O)N[C@@H](CO)C(=O)N[C@@H](CC(=O)O)C(=O)N3)NC(=O)[C@H](C(C)C)NC2=O,"HEK293, Wnt1-transfected",Wnt signalling,,,,IC50,> 100000 nM
CC(C)(C)C(=O)OCOP(=O)(OCOC(=O)C(C)(C)C)C1CCCN(O)C1=O (stereo not shown),NCI/ADR-RES,,,,,GI50,434 nM
O=C1NC2(CC2)COc2ncc(F)cc2[C@H]2COCCN2c2ccn3ncc1c3n2,,,"Sprague-Dawley rat, male, serum","oral, 2.5 mg/kg/day, end of treatment, 4-week subacute toxicity",,serum hepatic lipase activity,3.3 ± 0.7 U/L
CC(C)CC(C(=O)N1CC2(CC1C#N)C(=O)Nc1ccccc12)N(C)C(=O)c1cc2c(F)cc(F)c(F)c2[nH]1 (stereo not shown),Human coronavirus 229E,cytopathic effect,MRC5,10 µM,,inhibition,90.3%
[2H]C([2H])([18F])[C@]([2H])(N)C(=O)O,U-87 MG tumour model,,host not given,5 min,,maximum cellular uptake,14.4 ± 0.6 %ID/100 µg protein
COc1ccccc1-c1ccncc1C(=O)Nc1nnc(OCc2ccc(Cl)cc2)s1,DLD-1 parental (BRCA2 WT),,,"4 µM, average of 3 runs",reference: untreated,colony survival,98.2%
COc1ccccc1-c1n[nH]c2nc(N[C@H]3CC[C@H](NS(=O)(=O)CC(C)C)CC3)ncc12,,"bead binding, competition bead pull-down, refers to: LINJ.34.1770",Leishmania donovani extract,10 µM,reference: vehicle,relative abundance,0.53
Cc1ccc(N2CCN(C)CC2)cc1C(=O)N[C@H](C)c1cc(-c2cnn(C)c2)nc2ccccc12,Vero E6,,,250 µM,,viability,0.136% and 0.952%

# A few entries again:
Compound,target or system,assay,test system,setting,how to read,quantity,result
CC(C)(C)C(=O)OCOP(=O)(OCOC(=O)C(C)(C)C)C1CCCN(O)C1=O (stereo not shown),NCI/ADR-RES,,,,,GI50,434 nM
O=C1NC2(CC2)COc2ncc(F)cc2[C@H]2COCCN2c2ccn3ncc1c3n2,,,"Sprague-Dawley rat, male, serum","oral, 2.5 mg/kg/day, end of treatment, 4-week subacute toxicity",,serum hepatic lipase activity,3.3 ± 0.7 U/L
